Measured values collected from several papers.
Lines come from different studies, so protocols differ. Values joined by “and” are separate records of one study, mostly repeats; a detail may differ. ± marks the error that the study gave.
SLC6A3: Sodium-dependent dopamine transporter (SLC6A3, Homo sapiens, UniProt Q01959)
Sequence of UniProt Q01959 (whole entry, looked up): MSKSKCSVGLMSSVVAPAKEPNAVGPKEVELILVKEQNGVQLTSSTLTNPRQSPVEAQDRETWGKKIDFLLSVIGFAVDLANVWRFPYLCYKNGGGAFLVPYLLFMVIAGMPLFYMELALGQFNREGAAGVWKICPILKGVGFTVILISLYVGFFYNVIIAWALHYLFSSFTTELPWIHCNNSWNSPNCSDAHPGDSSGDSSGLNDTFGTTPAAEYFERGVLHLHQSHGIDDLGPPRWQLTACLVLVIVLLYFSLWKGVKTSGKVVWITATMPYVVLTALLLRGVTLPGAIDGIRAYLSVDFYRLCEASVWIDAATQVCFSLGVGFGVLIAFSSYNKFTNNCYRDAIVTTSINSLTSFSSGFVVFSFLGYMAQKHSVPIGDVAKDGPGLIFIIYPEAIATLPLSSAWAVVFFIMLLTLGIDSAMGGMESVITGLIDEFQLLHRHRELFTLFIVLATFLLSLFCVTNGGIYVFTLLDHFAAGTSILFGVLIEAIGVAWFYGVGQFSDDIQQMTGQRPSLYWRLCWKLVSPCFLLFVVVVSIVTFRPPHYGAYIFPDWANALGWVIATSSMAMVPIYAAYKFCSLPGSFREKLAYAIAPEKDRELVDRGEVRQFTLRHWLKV
Chymotrypsinogen A: Chymotrypsinogen A (Bos taurus, UniProt P00766)
ache: Acetylcholinesterase (ache, Electrophorus electricus, UniProt O42275)
Sequence of UniProt O42275 (whole entry, looked up): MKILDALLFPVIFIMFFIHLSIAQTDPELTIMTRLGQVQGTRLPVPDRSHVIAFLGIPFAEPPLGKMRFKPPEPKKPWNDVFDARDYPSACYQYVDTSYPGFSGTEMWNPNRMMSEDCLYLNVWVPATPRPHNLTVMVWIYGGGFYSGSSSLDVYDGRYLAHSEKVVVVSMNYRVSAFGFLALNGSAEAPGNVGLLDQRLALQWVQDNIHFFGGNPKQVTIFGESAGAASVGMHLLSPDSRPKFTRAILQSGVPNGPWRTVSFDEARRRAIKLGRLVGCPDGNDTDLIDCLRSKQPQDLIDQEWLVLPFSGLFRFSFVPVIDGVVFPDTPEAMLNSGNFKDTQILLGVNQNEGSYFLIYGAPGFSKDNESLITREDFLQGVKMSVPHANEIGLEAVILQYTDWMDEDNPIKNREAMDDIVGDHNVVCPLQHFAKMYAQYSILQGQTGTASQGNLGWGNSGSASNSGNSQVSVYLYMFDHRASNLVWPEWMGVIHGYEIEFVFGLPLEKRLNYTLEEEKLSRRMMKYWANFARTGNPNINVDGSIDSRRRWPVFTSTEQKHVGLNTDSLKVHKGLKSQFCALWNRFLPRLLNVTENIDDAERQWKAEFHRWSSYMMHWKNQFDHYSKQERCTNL
OPRK1: Kappa-type opioid receptor (OPRK1, Homo sapiens, UniProt P41145)
Sequence of UniProt P41145 (whole entry, looked up): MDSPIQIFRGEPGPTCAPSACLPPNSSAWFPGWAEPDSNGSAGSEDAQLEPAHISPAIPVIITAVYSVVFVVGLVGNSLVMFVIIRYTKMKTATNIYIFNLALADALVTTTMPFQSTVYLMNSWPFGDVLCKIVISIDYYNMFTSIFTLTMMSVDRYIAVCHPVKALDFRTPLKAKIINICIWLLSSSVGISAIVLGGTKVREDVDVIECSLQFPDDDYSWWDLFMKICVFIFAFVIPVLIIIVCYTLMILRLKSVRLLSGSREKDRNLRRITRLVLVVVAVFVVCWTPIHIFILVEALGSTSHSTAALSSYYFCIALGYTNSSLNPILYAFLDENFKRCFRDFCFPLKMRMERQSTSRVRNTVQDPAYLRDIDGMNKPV
SIGMAR1: Sigma non-opioid intracellular receptor 1 (SIGMAR1, Homo sapiens, UniProt Q99720)
Sequence of UniProt Q99720 (whole entry, looked up): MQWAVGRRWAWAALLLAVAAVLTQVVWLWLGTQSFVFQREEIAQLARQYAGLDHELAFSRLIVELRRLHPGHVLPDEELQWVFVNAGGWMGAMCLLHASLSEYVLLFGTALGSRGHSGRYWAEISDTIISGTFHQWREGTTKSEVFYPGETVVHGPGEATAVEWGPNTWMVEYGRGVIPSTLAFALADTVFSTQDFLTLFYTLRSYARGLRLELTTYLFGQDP
CARM1: Histone-arginine methyltransferase CARM1 (CARM1, Homo sapiens, UniProt Q86X55)
Sequence of UniProt Q86X55 (whole entry, looked up): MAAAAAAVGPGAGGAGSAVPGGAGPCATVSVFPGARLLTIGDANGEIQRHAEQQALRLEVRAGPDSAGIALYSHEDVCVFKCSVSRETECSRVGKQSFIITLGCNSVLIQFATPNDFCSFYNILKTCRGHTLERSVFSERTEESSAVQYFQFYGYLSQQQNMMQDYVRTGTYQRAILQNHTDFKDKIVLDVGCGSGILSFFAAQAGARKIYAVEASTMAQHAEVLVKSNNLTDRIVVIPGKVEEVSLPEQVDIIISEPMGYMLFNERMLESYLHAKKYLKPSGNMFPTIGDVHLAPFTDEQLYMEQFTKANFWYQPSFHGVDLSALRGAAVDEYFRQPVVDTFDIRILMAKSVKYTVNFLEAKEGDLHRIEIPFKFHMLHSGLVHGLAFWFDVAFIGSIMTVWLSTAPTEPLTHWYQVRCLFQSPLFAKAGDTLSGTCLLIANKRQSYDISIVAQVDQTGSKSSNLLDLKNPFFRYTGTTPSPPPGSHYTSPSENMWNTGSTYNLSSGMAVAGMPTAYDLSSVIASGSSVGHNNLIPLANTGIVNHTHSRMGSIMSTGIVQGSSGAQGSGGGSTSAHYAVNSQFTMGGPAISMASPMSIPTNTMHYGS
Sequence of UniProt P33913 (whole entry, looked up): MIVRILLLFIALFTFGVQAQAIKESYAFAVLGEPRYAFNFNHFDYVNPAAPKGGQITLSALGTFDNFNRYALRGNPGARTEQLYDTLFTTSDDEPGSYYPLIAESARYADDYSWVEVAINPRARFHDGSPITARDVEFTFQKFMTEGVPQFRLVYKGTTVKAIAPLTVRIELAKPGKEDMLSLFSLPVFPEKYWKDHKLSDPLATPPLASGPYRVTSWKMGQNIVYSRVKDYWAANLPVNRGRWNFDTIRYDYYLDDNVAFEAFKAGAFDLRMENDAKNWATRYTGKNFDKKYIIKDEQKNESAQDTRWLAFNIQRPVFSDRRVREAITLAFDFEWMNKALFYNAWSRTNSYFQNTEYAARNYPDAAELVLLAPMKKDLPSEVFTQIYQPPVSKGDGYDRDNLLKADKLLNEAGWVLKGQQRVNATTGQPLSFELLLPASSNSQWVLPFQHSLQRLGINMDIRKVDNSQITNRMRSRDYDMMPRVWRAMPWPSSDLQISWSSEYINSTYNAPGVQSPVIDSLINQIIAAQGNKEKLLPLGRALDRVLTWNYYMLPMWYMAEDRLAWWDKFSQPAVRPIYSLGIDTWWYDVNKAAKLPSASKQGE
Sequence of UniProt P30518 (whole entry, looked up): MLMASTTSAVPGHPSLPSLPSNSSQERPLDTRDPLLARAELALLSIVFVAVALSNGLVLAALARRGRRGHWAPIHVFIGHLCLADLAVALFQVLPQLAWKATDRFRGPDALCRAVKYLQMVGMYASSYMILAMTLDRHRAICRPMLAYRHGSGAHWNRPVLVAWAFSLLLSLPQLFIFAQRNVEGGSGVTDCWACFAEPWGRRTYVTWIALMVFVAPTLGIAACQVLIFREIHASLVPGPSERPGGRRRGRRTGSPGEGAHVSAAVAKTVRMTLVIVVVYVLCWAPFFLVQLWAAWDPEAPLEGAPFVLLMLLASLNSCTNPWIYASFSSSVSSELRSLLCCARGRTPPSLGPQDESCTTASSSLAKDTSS
Sequence of UniProt P25100 (whole entry, looked up): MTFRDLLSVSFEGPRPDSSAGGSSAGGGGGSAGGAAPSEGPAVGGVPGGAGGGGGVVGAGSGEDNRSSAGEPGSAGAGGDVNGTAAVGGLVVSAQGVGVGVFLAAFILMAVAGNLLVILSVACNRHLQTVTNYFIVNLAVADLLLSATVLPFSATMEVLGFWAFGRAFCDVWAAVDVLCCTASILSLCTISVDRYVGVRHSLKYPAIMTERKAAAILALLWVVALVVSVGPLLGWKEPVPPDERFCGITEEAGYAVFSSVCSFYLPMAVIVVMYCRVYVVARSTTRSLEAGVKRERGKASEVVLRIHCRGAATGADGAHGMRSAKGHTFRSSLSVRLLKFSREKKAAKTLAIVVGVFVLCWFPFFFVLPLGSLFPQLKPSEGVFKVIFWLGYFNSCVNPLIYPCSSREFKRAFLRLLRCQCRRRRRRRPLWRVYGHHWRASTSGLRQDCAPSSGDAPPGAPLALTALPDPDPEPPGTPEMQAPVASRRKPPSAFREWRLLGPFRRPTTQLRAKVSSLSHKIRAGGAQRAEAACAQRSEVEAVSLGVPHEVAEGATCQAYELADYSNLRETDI
Sequence of UniProt P18031 (whole entry, looked up): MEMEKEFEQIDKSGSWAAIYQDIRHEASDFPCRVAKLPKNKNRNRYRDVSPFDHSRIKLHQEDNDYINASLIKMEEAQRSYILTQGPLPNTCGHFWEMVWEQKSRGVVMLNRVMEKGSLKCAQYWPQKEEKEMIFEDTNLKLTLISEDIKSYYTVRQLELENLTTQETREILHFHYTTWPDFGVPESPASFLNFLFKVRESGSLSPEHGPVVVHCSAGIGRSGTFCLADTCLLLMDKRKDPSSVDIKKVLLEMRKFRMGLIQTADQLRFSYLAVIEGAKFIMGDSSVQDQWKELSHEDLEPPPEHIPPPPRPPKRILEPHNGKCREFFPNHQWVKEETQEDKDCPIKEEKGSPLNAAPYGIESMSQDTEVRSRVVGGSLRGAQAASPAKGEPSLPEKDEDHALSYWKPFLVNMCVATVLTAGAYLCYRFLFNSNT
Sequence of UniProt P41143 (whole entry, unmodified, looked up): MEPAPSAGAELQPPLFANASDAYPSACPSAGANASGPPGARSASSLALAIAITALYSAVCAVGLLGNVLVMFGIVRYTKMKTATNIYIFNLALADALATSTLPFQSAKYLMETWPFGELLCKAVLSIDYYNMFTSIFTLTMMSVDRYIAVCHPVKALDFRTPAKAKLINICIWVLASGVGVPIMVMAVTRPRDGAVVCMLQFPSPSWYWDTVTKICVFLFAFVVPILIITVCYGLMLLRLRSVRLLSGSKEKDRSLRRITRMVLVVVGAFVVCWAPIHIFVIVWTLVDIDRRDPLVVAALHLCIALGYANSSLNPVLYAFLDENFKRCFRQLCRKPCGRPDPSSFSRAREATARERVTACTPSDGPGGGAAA

SMILES	tested on	assay	system	setting	how to read	endpoint	result
CC(C)[C@@H]1NC(=O)[C@H](Cc2ccccc2)NC(=O)[C@H](Cc2ccc(O)cc2)NC(=O)CCSSCCC(=O)N[C@@H](Cc2ccc(O)cc2)C(=O)N[C@@H](Cc2ccccc2)C(=O)N[C@@H](C(C)C)C(=O)N[C@@H](CC(N)=O)C(=O)N[C@H](C(=O)N2CCC[C@H]2C(=O)N[C@H](CCCNC(=N)N)C(=O)NCC(N)=O)CSSC[C@@H](C(=O)N2CCC[C@H]2C(=O)N[C@H](CCCNC(=N)N)C(=O)NCC(N)=O)NC(=O)[C@H](CC(N)=O)NC1=O	AVPR2 (Homo sapiens, UniProt P30518)	ligand displacement, radioligand	–	cell membranes	–	Ki	4.2 nM
Cc1c(Cl)c(=O)oc2cc(OCCCCCC[Se]C#N)ccc12	CA9 (Homo sapiens, UniProt Q16790)	enzyme activity, inhibitor, stopped-flow	–	–	–	Ki	91.1 nM
COC(=O)[C@H]1[C@@H](c2ccc(Cl)cc2)C[C@@H]2CC[C@H]1N2CCCCCCCCCCCc1c2ccccc2cc2ccccc12	SLC6A3	ligand displacement, radioligand	–	pH 7.4	–	Ki	51 nM
COc1cc2c(cc1O)C(CCc1ccc(Cl)cc1)N(C)CC2 (centres unmarked)	HTR3A (Homo sapiens, UniProt P46098)	cell-free assay, radioligand	–	–	–	Ki	1100 nM
CC(=O)c1ccc(/N=N/c2cccc([B-](F)(F)F)c2)cc1	Chymotrypsinogen A	enzyme activity, competitive inhibitor	buffer with 2 vol% DMSO	pH 7.81, 25 °C, thermally adapted trans state, added: Suc-AAPF-AMC	–	Ki	122000 nM
O=S(=O)(N/N=C/c1ccc(OS(=O)(=O)c2cc(Cl)ccc2Cl)cc1)c1cc(Cl)ccc1Cl	ache	enzyme activity, inhibitor, Ellman	–	–	–	Ki	9.58 nM
O=C1c2ccccc2CCCN1CCCCN1CCN(c2cccc(Cl)c2Cl)CC1	HTR1B (Homo sapiens, UniProt P28222)	ligand displacement, radioligand	–	–	–	Ki	73 nM
CCCCc1ccc(/N=N/c2cccc([B-](F)(F)F)c2)cc1	Chymotrypsinogen A	enzyme activity, competitive inhibitor	buffer with 2 vol% DMSO	pH 7.81, 25 °C, thermally adapted trans state, added: Suc-AAPF-AMC	–	Ki	286000 nM and 285000 nM
COc1ccccc1N1CCN(CCCCN2CCCc3ccccc3C2=O)CC1	ADRA1D (Homo sapiens, UniProt P25100)	ligand displacement, radioligand	–	–	–	Ki	37.6 nM
CN(CC1CC1)[C@H]1COC[C@H]2NCCN(C(=O)Cc3ccc(Cl)c(Cl)c3)[C@@H]21 (relative stereo)	OPRK1	cell-free assay	–	–	–	Ki	210 nM
Cc1c(/N=N/c2ccccc2)cccc1[B-](F)(F)F	Chymotrypsinogen A	enzyme activity, inhibitor	–	pH 7.81, 25 °C, cis-enriched photostationary state, added: Suc-AAPF-AMC	–	Ki	352000 nM
C[C@@H](Cc1ccsc1)NC(=O)NC[C@H](Cc1ccc(O)cc1)N(C)C	CHRM1 (Homo sapiens, UniProt P11229)	cell-free assay	–	–	–	Ki	3400 nM
COC(=O)[C@H]1[C@@H](c2ccc(Cl)c(Cl)c2)C[C@@H]2CC[C@H]1N2Cc1ccc2cc3ccccc3cc2c1	SLC6A3	ligand displacement, radioligand	–	pH 7.4	–	Ki	210 nM
CSCC[C@H](N)C(=O)N[C@@H](CCCNC(=N)N)C(=O)N[C@H](C(=O)NCC(=O)N[C@@H](CC(N)=O)C(=O)N[C@@H](C)C(=O)N[C@@H](CC(N)=O)C(=O)O)[C@@H](C)O	Uncharacterized protein YejA (yejA, Escherichia coli, UniProt P33913)	binding, competition fluorescence polarization	–	–	–	Ki	~6470 nM and 6470 nM
COC(=O)[C@H]1[C@@H](c2ccc(Cl)cc2)C[C@@H]2CC[C@H]1N2CCCc1ccc2cc3ccccc3cc2c1	SLC6A3	ligand displacement, radioligand	–	pH 7.4	–	Ki	8.7 nM
CC(C)C[C@H](NC(=O)[C@H](Cc1ccccc1)NC(=O)CNC(=O)CNC(=O)[C@@H](N)Cc1ccc(O)cc1)C(=O)N[C@@H](CCCN=C(N)N)C(=O)N[C@@H](CCCN=C(N)N)C(=O)N[C@@H](CCC(N)=O)C(=O)N[C@@H](Cc1ccccc1)C(=O)N[C@@H](CCCCN)C(=O)N[C@H](C(=O)N[C@H](C(=O)N[C@H](C(=O)O)[C@@H](C)O)C(C)C)C(C)C	GPR139 (Homo sapiens, UniProt Q6DWJ6)	ligand displacement, radioligand	–	cell membranes	–	Ki	259 nM
CC(C)c1ccccc1/N=N/c1cccc([B-](F)(F)F)c1	Chymotrypsinogen A	enzyme activity, inhibitor	–	pH 7.81, 25 °C, cis-enriched photostationary state, added: Suc-AAPF-AMC	–	Ki	74100 nM
COc1ccccc1-c1n[nH]c2nc(NC3CCN(C(=O)Cc4ccc(F)cc4F)CC3)ncc12	–	bead binding, competition bead pull-down, item: LINJ.25.1530	Leishmania donovani axenic amastigote extract	10 µM	reference: vehicle	relative abundance	0.49
CC(C)[C@@H](Nc1nc(Cl)nc2c1ncn2[C@H]1[C@H](O)[C@H](O)[C@]2(CF)C[C@H]12)C1CC1	ADORA1 (Homo sapiens, UniProt P30542)	ligand displacement, radioligand	–	–	–	Ki	9.84 nM
O=C(Cc1ccc(Cl)c(Cl)c1)N1CCNC2COCC(N3CCCC3)C21 (centres unmarked)	OPRK1	cell-free assay	–	–	–	Ki	45 nM
COC(=O)[C@H]1[C@@H](c2ccc(Cl)c(Cl)c2)C[C@@H]2CC[C@H]1N2CCCc1ccc2cc3ccccc3cc2c1	SLC6A3	ligand displacement, radioligand	–	pH 7.4	–	Ki	120 nM

SMILES	tested on	assay	system	setting	how to read	endpoint	result
C[C@]12COc3ccc(OCc4cccc(Cl)c4)cc3[C@H]1CCN2	SIGMAR1	cell-free assay, radioligand	–	–	–	Ki	1.7 nM
O=C1NC2(CC2)COc2ncc(F)cc2[C@H]2COCCN2c2ccn3ncc1c3n2	–	–	Sprague-Dawley rat, male, thymus	oral, 2.5 mg/kg/day, 4 weeks dosing, end of recovery	–	organ-to-brain weight ratio	20.6 ± 2.47%
CC(C)[C@H]1NC(=O)[C@H](CO)NC(=O)[C@H](CCC(N)=O)NC(=O)[C@H](Cc2ccccc2)NC(=O)[C@H](Cc2ccc3ccccc3c2)NC(=O)[C@H](CCCNC(=N)N)NC(=O)[C@H](CCCNC(=N)N)NC(=O)[C@H](CCCNC(=N)N)NC(=O)[C@H](CCCNC(=N)N)NC(=O)[C@H](Cc2c[nH]cn2)NC(=O)[C@H](Cc2ccc(C(F)(F)P(=O)(O)O)cc2)NC(=O)[C@@H]2CCCN2C1=O	PTPN1 (Homo sapiens, UniProt P18031)	enzyme activity, inhibitor, absorbance	–	–	–	Ki	54 nM
CC(C)C[C@H](NC(=O)[C@H](CCCCN)NC(=O)[C@H](CCCCN)NC(=O)Cc1cccc(CNC(=O)[C@@H](C)NC(=N)N)c1)B(O)O	Chymotrypsinogen A	enzyme activity, inhibitor, fluorescence	–	–	–	Ki	100 nM
CN(C)[C@H]1COC[C@H]2NCCN(C(=O)Cc3ccc(Cl)c(Cl)c3)[C@@H]21 (relative stereo)	OPRK1	cell-free assay	–	–	–	Ki	110 nM
COc1ccc(S(=O)(=O)Oc2ccc(/C=N/NS(=O)(=O)c3cc(Cl)ccc3Cl)cc2)cc1	ache	enzyme activity, inhibitor, Ellman	–	–	–	Ki	24.1 nM
O=C1NC(=O)c2c1c1cc(F)c[n+]3c1c1c2c2cc(O)ccc2[n]1[Ru-4]312([N]=C=S)[S+]3CC[S+]1CC[S+]2CC3 (centres unmarked)	FYN (Homo sapiens, UniProt P06241)	enzyme activity	–	100 nM, human enzyme, added: 10 µM ATP	reference: untreated	remaining activity	35%
Cc1cc(O)cc(C)c1C[C@H](N)C(=O)N[C@H](CCCNC(=N)N)C(=O)N[C@@H](Cc1ccccc1)C(=O)N(C)CC(=O)N(C)Cc1cc(C(F)(F)F)cc(C(F)(F)F)c1	OPRD1 (Homo sapiens, UniProt P41143, A309I)	–	–	–	–	Ki	5.53 ± 0.59 nM
F[B-](F)(F)c1ccc(/N=N/c2ccccc2)cc1	Chymotrypsinogen A	enzyme activity, inhibitor	–	pH 7.81, 25 °C, cis-enriched photostationary state, added: Suc-AAPF-AMC	–	Ki	443000 nM
CC(=O)NCCCC[C@H](NC(=O)[C@H](CCCNC(=N)NCCC[C@H]1O[C@@H](n2cnc3c(N)ncnc32)[C@H](O)[C@@H]1O)NC(=O)[C@@H]1CCCN1C(=O)[C@H](C)NC(=O)[C@H](CCCCN)NC(=O)CNC(C)=O)C(=O)N[C@@H](CCC(N)=O)C(=O)N[C@@H](CC(C)C)C(=O)N[C@@H](C)C(=O)N[C@H](C(N)=O)[C@@H](C)O (relative stereo)	CARM1	enzyme activity, inhibitor	–	–	–	Ki	30 nM
COc1ccccc1COc1ccc2c(c1)[C@H]1CCN[C@@]1(C)CO2	SIGMAR1	cell-free assay, radioligand	–	–	–	Ki	4.2 nM
Cc1ccc(S(=O)(=O)Oc2ccc(/C=N/NS(=O)(=O)c3ccc(Cl)cc3)cc2)cc1	ache	enzyme activity, inhibitor, Ellman	–	–	–	Ki	37.4 nM
CC(=O)NCCCC[C@H](NC(=O)[C@H](CCCNC(=N)NCCC[C@H]1O[C@@H](n2cnc3c(N)ncnc32)[C@H](O)[C@@H]1O)NC(=O)[C@@H]1CCCN1C(=O)[C@H](C)NC(=O)[C@H](CCCCN)NC(=O)CNC(=O)CNC(=O)[C@@H](NC(=O)[C@H](CO)NC(C)=O)[C@@H](C)O)C(=O)N[C@@H](CCC(N)=O)C(=O)N[C@@H](CC(C)C)C(=O)N[C@@H](C)C(=O)N[C@H](C(=O)N[C@@H](CCCCN)C(=O)N[C@@H](C)C(=O)N[C@@H](C)C(N)=O)[C@@H](C)O (relative stereo)	CARM1	enzyme activity, inhibitor	–	–	–	Ki	28 nM
CS(C)(=O)=Nc1ccc(-c2ccc(-c3nc4cc(O[C@@H]5CO[C@H]6[C@@H]5OC[C@H]6O)[nH]c4cc3F)cc2)cc1	CHRNA1/CHRNG/CHRND (Homo sapiens, UniProt P02708+P07510+Q07001)	antagonist radioligand binding	–	10 µM	–	inhibition	-18%
F[B-](F)(F)c1cccc(/N=N/c2ccccc2)c1	Chymotrypsinogen A	enzyme activity, inhibitor	–	pH 7.81, 25 °C, cis-enriched photostationary state, added: Suc-AAPF-AMC	–	Ki	17100 nM
CC(C)(C)C(=O)OCOP(=O)(OCOC(=O)C(C)(C)C)C1CCCN(O)C1=O (centres unmarked)	NCI-H522	–	–	–	–	CC50	62800 nM
Cc1cc(C)cc(/N=N/c2cccc([B-](F)(F)F)c2)c1	Chymotrypsinogen A	enzyme activity, competitive inhibitor	buffer with 2 vol% DMSO	pH 7.81, 25 °C, thermally adapted trans state, added: Suc-AAPF-AMC	–	Ki	40900 nM and 41000 nM
CN(C)[C@H](CNC(=O)/C=C/c1cccc2ccccc12)Cc1ccc(O)cc1	ADRB2 (Homo sapiens, UniProt P07550)	cell-free assay	–	–	–	Ki	6700 nM
Fc1cccc(F)c1/N=N/c1cccc([B-](F)(F)F)c1	Chymotrypsinogen A	enzyme activity, competitive inhibitor	buffer with 2 vol% DMSO	pH 7.81, 25 °C, thermally adapted trans state, added: Suc-AAPF-AMC	–	Ki	32000 nM
CCN(N=Cc1cnc2ccc(Br)cn12)S(=O)(=O)c1cc([N+](=O)[O-])ccc1C	PIK3CA (Homo sapiens, UniProt P42336)	enzyme activity, inhibitor	–	non-competitive model, added: ATP substrate	–	Ki	46 ± 5 nM

For quick reference, copied from above:
SMILES	tested on	assay	system	setting	how to read	endpoint	result
CSCC[C@H](N)C(=O)N[C@@H](CCCNC(=N)N)C(=O)N[C@H](C(=O)NCC(=O)N[C@@H](CC(N)=O)C(=O)N[C@@H](C)C(=O)N[C@@H](CC(N)=O)C(=O)O)[C@@H](C)O	Uncharacterized protein YejA (yejA, Escherichia coli, UniProt P33913)	binding, competition fluorescence polarization	–	–	–	Ki	~6470 nM and 6470 nM
COC(=O)[C@H]1[C@@H](c2ccc(Cl)cc2)C[C@@H]2CC[C@H]1N2CCCCCCCCCCCc1c2ccccc2cc2ccccc12	SLC6A3	ligand displacement, radioligand	–	pH 7.4	–	Ki	51 nM
CC(C)c1ccccc1/N=N/c1cccc([B-](F)(F)F)c1	Chymotrypsinogen A	enzyme activity, inhibitor	–	pH 7.81, 25 °C, cis-enriched photostationary state, added: Suc-AAPF-AMC	–	Ki	74100 nM
CC(C)[C@@H]1NC(=O)[C@H](Cc2ccccc2)NC(=O)[C@H](Cc2ccc(O)cc2)NC(=O)CCSSCCC(=O)N[C@@H](Cc2ccc(O)cc2)C(=O)N[C@@H](Cc2ccccc2)C(=O)N[C@@H](C(C)C)C(=O)N[C@@H](CC(N)=O)C(=O)N[C@H](C(=O)N2CCC[C@H]2C(=O)N[C@H](CCCNC(=N)N)C(=O)NCC(N)=O)CSSC[C@@H](C(=O)N2CCC[C@H]2C(=O)N[C@H](CCCNC(=N)N)C(=O)NCC(N)=O)NC(=O)[C@H](CC(N)=O)NC1=O	AVPR2 (Homo sapiens, UniProt P30518)	ligand displacement, radioligand	–	cell membranes	–	Ki	4.2 nM
Cc1cc(O)cc(C)c1C[C@H](N)C(=O)N[C@H](CCCNC(=N)N)C(=O)N[C@@H](Cc1ccccc1)C(=O)N(C)CC(=O)N(C)Cc1cc(C(F)(F)F)cc(C(F)(F)F)c1	OPRD1 (Homo sapiens, UniProt P41143, A309I)	–	–	–	–	Ki	5.53 ± 0.59 nM
F[B-](F)(F)c1cccc(/N=N/c2ccccc2)c1	Chymotrypsinogen A	enzyme activity, inhibitor	–	pH 7.81, 25 °C, cis-enriched photostationary state, added: Suc-AAPF-AMC	–	Ki	17100 nM
